Measurements of several laboratories.
Parts stem from different laboratories: compare values within a part only.
Sequence of UniProt P08922 (whole entry, looked up): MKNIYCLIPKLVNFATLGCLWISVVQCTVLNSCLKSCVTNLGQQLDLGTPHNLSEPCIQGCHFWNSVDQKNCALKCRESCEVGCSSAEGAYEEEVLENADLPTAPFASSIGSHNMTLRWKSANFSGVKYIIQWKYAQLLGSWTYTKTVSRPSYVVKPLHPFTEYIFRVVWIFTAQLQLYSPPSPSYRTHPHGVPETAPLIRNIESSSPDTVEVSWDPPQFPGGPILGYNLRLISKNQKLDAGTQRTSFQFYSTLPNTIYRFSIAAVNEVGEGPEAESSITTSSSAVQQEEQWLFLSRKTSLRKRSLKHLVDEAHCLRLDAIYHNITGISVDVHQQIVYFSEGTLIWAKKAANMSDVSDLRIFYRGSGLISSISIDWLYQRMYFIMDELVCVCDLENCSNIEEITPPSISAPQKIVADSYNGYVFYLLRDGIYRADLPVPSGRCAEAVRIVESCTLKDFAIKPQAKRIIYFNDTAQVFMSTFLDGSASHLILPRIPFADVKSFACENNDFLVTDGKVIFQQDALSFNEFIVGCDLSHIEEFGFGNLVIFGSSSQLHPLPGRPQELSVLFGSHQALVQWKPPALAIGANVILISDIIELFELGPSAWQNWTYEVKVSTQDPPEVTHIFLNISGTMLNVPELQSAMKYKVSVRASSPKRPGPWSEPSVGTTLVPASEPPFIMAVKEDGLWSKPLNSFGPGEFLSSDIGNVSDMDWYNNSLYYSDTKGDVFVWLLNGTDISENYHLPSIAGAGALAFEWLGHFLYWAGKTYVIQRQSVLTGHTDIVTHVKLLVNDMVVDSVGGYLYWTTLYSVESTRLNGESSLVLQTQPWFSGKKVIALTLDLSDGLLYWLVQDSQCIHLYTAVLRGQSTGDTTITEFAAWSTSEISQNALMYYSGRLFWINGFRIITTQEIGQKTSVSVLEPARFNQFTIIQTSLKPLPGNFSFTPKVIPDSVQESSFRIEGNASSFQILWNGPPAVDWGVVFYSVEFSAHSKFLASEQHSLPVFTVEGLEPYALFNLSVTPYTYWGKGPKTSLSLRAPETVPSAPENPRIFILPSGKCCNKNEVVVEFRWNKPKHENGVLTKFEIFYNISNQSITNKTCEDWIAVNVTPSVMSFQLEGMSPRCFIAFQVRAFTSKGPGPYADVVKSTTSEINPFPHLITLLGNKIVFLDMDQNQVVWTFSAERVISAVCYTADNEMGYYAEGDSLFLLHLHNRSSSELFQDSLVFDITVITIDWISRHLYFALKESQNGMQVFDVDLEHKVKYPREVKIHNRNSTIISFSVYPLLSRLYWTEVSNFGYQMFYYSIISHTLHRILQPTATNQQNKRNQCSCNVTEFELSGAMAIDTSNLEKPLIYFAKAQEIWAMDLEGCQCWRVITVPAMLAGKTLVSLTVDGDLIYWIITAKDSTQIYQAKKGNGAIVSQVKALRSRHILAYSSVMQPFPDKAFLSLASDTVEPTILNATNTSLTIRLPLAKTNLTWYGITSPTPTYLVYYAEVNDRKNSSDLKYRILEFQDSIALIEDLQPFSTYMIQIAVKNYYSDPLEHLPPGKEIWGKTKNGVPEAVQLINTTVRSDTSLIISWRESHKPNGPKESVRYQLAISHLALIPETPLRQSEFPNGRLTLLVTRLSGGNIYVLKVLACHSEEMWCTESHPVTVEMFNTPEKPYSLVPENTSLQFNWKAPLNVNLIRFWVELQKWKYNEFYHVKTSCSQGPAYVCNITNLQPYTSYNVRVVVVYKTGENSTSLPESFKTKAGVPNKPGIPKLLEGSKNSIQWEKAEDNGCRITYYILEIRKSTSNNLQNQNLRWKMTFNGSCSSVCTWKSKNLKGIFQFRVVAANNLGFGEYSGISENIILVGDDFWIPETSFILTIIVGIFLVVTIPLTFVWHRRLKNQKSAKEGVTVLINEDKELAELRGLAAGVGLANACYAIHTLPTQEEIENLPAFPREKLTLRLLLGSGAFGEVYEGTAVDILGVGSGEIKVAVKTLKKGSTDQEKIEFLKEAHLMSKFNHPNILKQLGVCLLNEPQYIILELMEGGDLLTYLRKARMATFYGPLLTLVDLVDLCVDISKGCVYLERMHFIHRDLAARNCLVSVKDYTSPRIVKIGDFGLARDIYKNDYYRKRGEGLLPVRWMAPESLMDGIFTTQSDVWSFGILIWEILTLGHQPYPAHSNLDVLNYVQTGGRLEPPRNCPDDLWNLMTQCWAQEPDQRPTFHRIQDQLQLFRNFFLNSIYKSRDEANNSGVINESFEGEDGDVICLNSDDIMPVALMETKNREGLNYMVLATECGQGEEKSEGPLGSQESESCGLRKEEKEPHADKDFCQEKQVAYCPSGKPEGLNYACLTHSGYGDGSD
Sequence of UniProt P07948 (whole entry, looked up): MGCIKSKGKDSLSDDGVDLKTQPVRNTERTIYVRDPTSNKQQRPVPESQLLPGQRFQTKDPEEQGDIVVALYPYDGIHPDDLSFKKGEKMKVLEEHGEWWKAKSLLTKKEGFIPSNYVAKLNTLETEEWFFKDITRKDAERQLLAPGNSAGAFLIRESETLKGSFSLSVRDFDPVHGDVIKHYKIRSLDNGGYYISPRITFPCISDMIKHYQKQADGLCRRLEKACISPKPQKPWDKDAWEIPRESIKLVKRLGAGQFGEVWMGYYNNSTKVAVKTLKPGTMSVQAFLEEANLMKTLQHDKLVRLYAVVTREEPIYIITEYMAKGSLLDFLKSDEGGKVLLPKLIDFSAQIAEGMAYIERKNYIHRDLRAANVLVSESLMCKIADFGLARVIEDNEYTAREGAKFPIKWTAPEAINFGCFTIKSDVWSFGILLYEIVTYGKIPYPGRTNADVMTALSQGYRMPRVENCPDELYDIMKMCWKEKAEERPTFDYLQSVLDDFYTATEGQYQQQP

Study 1
SMILES: Cc1ccc(O)c(C)c1-c1cnc2[nH]c(-c3cnc(N4CCC5(CC4)CC(CN4CCN(c6ccc(NC7CCC(=O)NC7=O)cc6F)CC4)C5)nc3)cc2c1C#N (centres unmarked)
Target: Membrane-associated tyrosine- and threonine-specific cdc2-inhibitory kinase (PKMYT1, Homo sapiens, UniProt Q99640)
Sequence of UniProt Q99640 (whole entry, looked up): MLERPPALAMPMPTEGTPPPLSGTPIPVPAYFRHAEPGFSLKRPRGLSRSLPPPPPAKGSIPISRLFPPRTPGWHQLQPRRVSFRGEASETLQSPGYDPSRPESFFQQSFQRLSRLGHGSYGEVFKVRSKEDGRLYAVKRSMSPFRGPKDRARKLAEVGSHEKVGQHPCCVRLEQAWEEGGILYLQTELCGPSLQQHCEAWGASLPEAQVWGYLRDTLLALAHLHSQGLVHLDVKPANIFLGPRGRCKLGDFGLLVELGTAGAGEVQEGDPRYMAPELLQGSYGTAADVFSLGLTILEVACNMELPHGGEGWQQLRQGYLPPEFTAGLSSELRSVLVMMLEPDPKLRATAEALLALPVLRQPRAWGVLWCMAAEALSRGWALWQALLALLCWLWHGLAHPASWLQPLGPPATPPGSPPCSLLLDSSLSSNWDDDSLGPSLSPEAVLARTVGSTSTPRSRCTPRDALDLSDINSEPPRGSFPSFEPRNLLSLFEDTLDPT
effect on | mode | technique | tested at | inhibition
cell-free assay | inhibitor | TR-FRET | 1 µM | 99.9%
cell-free assay | inhibitor | TR-FRET | 1.37 nM | 7.41%
cell-free assay | inhibitor | TR-FRET | 0.3333 µM | 99.5%
cell-free assay | inhibitor | TR-FRET | 12.35 nM | 77.3%
– | – | – | 0.3333 µM | 99.3%
– | – | – | 0.000152 µM | -3.93%
– | – | – | 5.1e-05 µM | -8.31%
– | – | – | 0.1111 µM | 97.6%
– | – | – | 0.00412 µM | 38.4%
cell-free assay | inhibitor | TR-FRET | 152 pM | -5.24%

Study 2 — effect on: kinase activity
SMILES: CN(C1COC1)C(C)(C)/C=C(\C#N)C(=O)N1CCC[C@H]1Cn1nc(-c2ccc(Oc3ccccc3)cc2F)c2c(N)ncnc21
CDK2 with cyclin E: Cyclin-dependent kinase 2, with cyclin E (CDK2, Homo sapiens, UniProt P24941)
target | tested at | inhibition
LATS2 (Homo sapiens, UniProt Q9NRM7) | 1 µM | 1%
CDK2 with cyclin E | 1 µM | -10%
MAPK14 (Homo sapiens, UniProt Q16539) | 1 µM | -2%
MAPK12 (Homo sapiens, UniProt P53778) | 1 µM | -7%
STK10 (Homo sapiens, UniProt O94804) | 0.1 µM | 29%
ERBB2 (Homo sapiens, UniProt P04626) | 0.1 µM | -1%
ROS1 (Homo sapiens, UniProt P08922) | 0.1 µM | 1%
PIM1 (Homo sapiens, UniProt P11309) | 1 µM | 5%
HIPK4 (Homo sapiens, UniProt Q8NE63) | 0.1 µM | 3%
SIK2 (Homo sapiens, UniProt Q9H0K1) | 0.1 µM | 7%
PIM3 (Homo sapiens, UniProt Q86V86) | 1 µM | 9%
FRK (Homo sapiens, UniProt P42685) | 1 µM | 4%
SPHK1 (Homo sapiens, UniProt Q9NYA1) | 0.1 µM | 0%
Tyrosine-protein kinase Lyn, isoform B (LYN, Homo sapiens, UniProt P07948) | 1 µM | 23%
AKT3 (Homo sapiens, UniProt Q9Y243) | 0.1 µM | 2%
IRAK4 (Homo sapiens, UniProt Q9NWZ3) | 1 µM | 0%
MAPK8 (Homo sapiens, UniProt P45983) | 0.1 µM | 1%
CDK2 with cyclin E | 0.1 µM | -3%
ZAP70 (Homo sapiens, UniProt P43403) | 1 µM | 6%
FLT4 (Homo sapiens, UniProt P35916) | 0.1 µM | 3%
MAPK3 (Homo sapiens, UniProt P27361) | 1 µM | 0%

Study 3 — effect on: binding; technique: competition with immobilised ligand; tested at: 1 µM
Compound: COc1cc(-c2nc3ccc(C(=O)NCCCN4CCN(c5cccc(C)c5C)CC4)cc3n2C2CCC2)cc(OC)c1OC
target | remaining binding [%]
AXL (Homo sapiens, UniProt P30530) | 94
Myosin-IIIb (MYO3B, Homo sapiens, UniProt Q8WXR4) | 84
PRKCI (Homo sapiens, UniProt P41743) | 91
DYRK1A (Homo sapiens, UniProt Q13627) | 95
WEE2 (Homo sapiens, UniProt P0C1S8) | 96
MAP4K4 (Homo sapiens, UniProt O95819) | 94
PRKAA2 (Homo sapiens, UniProt P54646) | 86
CDKL3 (Homo sapiens, UniProt Q8IVW4) | 73
PRKACB (Homo sapiens, UniProt P22694) | 100
NEK6 (Homo sapiens, UniProt Q9HC98) | 100
TTK (Homo sapiens, UniProt P33981) | 98
STK33 (Homo sapiens, UniProt Q9BYT3) | 83
BMX (Homo sapiens, UniProt P51813) | 100
MYLK2 (Homo sapiens, UniProt Q9H1R3) | 82
PIK3CD (Homo sapiens, UniProt O00329) | 91
LRRK2 (Homo sapiens, UniProt Q5S007) | 100
ALK (Homo sapiens, UniProt Q9UM73, C1156Y) | 90

Study 4 — effect on: thermal unfolding; technique: differential scanning fluorimetry; tested at: 5.5 µM; direction: higher = more unfolded
SMILES: C[C@@H]1CN(c2ccc(-c3cc(C(=O)NCCOCCOCCOCCOCCNC(=O)Cn4cc(-c5[nH]cc(C(=O)N[C@@H](CC(N)=O)c6ccc(F)c(Cl)c6)c5-c5ccc(Cl)cc5F)cn4)ccc3F)cc2NC(=O)c2c[nH]c(=O)cc2C(F)(F)F)C[C@H](C)N1C
WDR5: WD repeat-containing protein 5 (WDR5, Homo sapiens, UniProt P61964)
DCAF1: DDB1- and CUL4-associated factor 1 (DCAF1, Homo sapiens, UniProt Q9Y4B6)
Sequence of UniProt Q9Y4B6 (whole entry, looked up): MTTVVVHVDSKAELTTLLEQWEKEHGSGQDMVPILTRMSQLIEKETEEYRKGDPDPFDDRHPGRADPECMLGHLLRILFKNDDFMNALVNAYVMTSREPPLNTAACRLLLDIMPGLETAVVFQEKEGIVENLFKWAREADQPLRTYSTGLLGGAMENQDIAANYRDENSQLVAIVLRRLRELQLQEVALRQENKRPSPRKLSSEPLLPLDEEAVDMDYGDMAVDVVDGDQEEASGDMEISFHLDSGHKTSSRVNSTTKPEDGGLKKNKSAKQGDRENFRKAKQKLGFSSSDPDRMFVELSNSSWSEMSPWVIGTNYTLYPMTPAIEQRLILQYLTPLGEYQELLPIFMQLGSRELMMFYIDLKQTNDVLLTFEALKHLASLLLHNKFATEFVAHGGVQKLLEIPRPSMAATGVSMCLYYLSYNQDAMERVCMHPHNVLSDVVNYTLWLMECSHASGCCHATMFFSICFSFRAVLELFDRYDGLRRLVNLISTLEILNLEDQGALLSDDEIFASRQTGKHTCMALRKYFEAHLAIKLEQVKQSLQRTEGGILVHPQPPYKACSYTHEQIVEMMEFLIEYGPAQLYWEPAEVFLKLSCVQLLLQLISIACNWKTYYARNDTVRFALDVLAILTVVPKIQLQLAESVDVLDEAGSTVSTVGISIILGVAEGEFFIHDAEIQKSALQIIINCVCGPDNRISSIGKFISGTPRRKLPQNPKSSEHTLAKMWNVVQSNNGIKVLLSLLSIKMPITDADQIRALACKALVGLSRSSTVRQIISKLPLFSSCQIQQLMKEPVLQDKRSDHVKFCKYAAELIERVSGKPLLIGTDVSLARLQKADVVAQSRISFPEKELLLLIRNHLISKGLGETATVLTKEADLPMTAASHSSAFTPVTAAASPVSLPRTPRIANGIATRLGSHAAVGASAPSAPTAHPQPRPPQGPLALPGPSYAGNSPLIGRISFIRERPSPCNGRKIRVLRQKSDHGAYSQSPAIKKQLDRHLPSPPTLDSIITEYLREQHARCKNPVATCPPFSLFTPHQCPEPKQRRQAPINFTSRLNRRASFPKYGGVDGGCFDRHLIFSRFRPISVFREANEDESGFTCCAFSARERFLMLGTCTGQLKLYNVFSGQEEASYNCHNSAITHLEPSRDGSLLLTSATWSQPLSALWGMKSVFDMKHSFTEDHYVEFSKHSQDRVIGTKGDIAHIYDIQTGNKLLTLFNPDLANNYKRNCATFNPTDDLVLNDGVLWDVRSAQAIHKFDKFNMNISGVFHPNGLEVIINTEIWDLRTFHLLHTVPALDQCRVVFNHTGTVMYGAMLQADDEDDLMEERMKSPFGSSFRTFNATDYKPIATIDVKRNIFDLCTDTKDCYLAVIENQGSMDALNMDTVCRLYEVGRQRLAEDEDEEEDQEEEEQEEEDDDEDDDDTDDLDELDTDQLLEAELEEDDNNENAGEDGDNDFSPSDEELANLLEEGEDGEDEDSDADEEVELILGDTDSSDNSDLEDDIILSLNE
target | temperature | SYPRO Orange fluorescence
WDR5 | 76.61 °C | 14000 a.u.
WDR5 | 87.61 °C | 43400 a.u.
WDR5 | 27 °C | 14800 a.u.
DCAF1 | 25.8 °C | 7550 a.u.
WDR5 | 65.81 °C | 7350 a.u.
WDR5 | 60.41 °C | 10100 a.u.
DCAF1 | 85.81 °C | 38900 a.u.
WDR5 | 57.81 °C | 12000 a.u.
WDR5 | 37.2 °C | 14400 a.u.
DCAF1 | 93.61 °C | 31400 a.u.
DCAF1 | 67.21 °C | 56700 a.u.
